Published values collected from several papers.
Lines come from different studies, so protocols differ. Numbers after ± are the reported error.
AR: Androgen receptor (AR, Homo sapiens, UniProt P10275)
UniProt P10275, sequence (whole entry, looked up): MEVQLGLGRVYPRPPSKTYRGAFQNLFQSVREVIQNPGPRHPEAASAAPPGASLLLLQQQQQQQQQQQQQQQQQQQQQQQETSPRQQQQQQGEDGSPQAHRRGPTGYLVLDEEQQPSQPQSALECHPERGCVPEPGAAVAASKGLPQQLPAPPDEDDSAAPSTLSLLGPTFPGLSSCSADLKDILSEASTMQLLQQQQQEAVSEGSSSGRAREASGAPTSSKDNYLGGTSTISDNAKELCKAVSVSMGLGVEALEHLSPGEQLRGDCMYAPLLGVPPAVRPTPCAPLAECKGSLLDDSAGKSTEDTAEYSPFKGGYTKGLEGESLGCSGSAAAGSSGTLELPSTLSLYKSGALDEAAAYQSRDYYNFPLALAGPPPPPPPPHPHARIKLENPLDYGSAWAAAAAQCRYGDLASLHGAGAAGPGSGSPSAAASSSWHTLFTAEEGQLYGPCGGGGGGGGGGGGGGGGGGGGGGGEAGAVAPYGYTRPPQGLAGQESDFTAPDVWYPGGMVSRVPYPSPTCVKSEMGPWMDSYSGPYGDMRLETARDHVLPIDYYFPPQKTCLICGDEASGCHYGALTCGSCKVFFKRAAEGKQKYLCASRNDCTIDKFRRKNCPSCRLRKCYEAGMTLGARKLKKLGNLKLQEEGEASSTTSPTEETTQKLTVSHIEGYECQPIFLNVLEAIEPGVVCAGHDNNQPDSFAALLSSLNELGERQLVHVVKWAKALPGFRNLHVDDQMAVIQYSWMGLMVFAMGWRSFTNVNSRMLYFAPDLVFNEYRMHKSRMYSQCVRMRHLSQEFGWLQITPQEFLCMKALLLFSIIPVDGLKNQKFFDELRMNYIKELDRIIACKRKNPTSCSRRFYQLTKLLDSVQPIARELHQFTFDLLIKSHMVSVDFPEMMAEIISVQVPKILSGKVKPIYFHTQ
Faah: Fatty-acid amide hydrolase 1 (Faah, Mus musculus, UniProt O08914)
UniProt O08914, sequence (whole entry, looked up): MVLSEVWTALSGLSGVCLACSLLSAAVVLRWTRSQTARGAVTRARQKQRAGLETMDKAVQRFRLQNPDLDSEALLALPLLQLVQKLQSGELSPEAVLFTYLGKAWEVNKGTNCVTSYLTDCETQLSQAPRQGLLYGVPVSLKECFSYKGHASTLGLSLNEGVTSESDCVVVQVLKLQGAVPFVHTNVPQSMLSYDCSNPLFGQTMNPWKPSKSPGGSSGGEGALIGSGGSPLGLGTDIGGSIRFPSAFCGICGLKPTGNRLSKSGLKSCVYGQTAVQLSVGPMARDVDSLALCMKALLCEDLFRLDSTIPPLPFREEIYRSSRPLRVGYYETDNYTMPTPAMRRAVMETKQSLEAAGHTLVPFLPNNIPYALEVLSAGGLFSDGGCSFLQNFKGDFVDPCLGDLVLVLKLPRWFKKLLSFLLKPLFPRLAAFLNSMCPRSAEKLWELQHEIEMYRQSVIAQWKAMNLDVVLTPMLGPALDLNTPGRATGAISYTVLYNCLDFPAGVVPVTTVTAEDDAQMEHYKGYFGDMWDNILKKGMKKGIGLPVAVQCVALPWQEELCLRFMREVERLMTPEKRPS
UniProt Q08345, sequence (whole entry, looked up): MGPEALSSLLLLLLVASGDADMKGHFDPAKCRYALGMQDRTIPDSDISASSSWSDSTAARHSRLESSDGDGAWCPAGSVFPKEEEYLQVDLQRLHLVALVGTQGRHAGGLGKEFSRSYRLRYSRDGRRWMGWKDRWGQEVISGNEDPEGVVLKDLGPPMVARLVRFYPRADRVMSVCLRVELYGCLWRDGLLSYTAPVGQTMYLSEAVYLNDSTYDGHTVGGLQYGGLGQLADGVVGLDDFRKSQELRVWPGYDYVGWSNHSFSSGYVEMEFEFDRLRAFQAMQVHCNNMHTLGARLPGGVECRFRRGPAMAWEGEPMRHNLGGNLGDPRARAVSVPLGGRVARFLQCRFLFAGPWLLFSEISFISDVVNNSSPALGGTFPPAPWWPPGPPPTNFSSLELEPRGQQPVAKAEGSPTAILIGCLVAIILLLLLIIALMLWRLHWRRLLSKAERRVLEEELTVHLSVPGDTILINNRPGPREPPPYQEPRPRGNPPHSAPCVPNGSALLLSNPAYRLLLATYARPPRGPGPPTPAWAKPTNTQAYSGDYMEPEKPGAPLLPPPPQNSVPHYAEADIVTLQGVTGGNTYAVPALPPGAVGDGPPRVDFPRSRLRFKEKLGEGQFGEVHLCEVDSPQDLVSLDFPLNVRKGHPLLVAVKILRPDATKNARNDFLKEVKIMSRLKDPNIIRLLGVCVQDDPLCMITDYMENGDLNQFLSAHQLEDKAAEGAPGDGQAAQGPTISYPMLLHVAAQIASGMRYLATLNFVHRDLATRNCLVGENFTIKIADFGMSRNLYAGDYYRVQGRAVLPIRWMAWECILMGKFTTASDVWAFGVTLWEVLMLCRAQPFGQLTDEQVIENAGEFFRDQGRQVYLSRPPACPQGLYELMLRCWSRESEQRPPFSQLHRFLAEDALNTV
UniProt O14746, sequence (whole entry, looked up): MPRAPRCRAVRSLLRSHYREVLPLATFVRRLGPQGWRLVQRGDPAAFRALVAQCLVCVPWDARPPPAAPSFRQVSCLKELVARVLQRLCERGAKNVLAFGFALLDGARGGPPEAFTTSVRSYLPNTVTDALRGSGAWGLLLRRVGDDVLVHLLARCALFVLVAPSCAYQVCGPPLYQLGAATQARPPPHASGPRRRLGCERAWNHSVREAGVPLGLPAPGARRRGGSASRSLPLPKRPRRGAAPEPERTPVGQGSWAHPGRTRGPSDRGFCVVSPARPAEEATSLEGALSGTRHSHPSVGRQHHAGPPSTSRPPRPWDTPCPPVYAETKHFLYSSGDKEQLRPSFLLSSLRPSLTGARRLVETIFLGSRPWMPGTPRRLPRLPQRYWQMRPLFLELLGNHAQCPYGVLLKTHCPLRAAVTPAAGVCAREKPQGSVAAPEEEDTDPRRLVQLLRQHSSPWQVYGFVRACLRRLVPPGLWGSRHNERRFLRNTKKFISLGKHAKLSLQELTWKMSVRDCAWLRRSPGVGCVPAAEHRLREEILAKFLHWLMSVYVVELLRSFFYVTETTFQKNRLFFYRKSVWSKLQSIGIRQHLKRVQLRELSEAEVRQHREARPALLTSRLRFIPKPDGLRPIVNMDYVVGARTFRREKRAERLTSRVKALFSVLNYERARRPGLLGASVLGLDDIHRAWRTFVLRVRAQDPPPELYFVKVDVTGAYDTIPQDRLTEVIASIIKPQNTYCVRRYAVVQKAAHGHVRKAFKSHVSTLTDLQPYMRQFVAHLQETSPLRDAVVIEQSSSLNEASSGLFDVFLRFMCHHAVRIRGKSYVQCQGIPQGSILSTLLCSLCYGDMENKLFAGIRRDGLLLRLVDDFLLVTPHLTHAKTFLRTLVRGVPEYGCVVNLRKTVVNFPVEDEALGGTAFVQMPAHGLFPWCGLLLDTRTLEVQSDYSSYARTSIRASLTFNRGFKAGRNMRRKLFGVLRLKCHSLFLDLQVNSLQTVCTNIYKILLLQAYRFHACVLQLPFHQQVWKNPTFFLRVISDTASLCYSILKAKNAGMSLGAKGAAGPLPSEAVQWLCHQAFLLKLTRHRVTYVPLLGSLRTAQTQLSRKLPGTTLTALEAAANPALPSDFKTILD
UniProt Q9GZX7, sequence (whole entry, looked up): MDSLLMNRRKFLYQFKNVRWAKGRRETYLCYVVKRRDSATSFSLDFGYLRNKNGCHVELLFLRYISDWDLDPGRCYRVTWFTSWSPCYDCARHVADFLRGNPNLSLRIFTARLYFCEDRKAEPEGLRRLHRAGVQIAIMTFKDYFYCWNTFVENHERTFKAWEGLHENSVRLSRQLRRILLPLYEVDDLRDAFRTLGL

For `CN(CC(=O)c1ccc2[nH]c(=O)[nH]c2c1)Cc1ccco1`, the remaining activity was 40.3% (Single-stranded DNA cytosine deaminase (AICDA, Homo sapiens, UniProt Q9GZX7); deaminase activity, inhibitor, alkaline cleavage; 293T lysate, His-tagged AID; concentration not given, DMSO 100%).
With `CC(=O)c1c(O)c2ccc3ccccc3c2oc1=O` the remaining activity was 72.9 ± 2.7% (SYK (Homo sapiens, UniProt P43405); enzyme activity, inhibitor, ADP-Glo; 5 µM).
`CC1(C)CCN(Cc2ccc(C(=O)NC[C@]3(O)CCCN(c4cc(NCc5ccccc5)ncn4)C3)c(O)c2)CC1` has a remaining activity of 85% (DDR1 (Homo sapiens, UniProt Q08345); kinase activity, radiometric; 10 µM, together with: 10 µM ATP).
`NC(CNC(CNC(CC(=O)O)C(=O)O)C(=O)O)C(=O)O` (stereo not shown) gave a remaining activity of 53.1 ± 8.4% (angiotensin-converting enzyme, rabbit; 500 µM, 0 min, Zn-depleted buffer).
`CCCCCCCCCCSc1nc2c([nH]1)c(=S)n(C)c(=S)n2C` has a remaining activity of 85% (AR; reporter gene, antagonist, PSA-luciferase; HeLa-A6; 10 µM, 24 h, together with: 5 nM dihydrotestosterone; reference: maximal activity).
`[N-]=[N+]=N[C@H]1C[C@H](n2cnc3c(=O)[nH]c(N)nc32)O[C@@H]1COP(=O)(O)OP(=O)(O)OP(=O)(O)O` gave a remaining activity of 3% (TERT (Homo sapiens, UniProt O14746); enzyme activity, stretch PCR; 10 µM, together with: competing dNTP 10 µM).
`CCSc1nc2c([nH]1)c(=O)n(C)c(=O)n2C` has a remaining activity of 115% (AR; reporter gene, antagonist, PSA-luciferase; HeLa-A6; 10 µM, 24 h, together with: 5 nM dihydrotestosterone; reference: maximal activity).
`COc1cc2nnn(C(=O)N3COCC3(C)C)c2cc1OC` has a remaining activity of 8 ± 4% (Faah; inhibitor; mouse, liver; oral, 0.1 mg/kg, 8 h after dose; reference: control).
With `CCCCCCCCCCCCSc1nc2c([nH]1)c(=S)n(C)c(=O)n2C` the remaining activity was 104% (AR; reporter gene, antagonist, PSA-luciferase; HeLa-A6; 10 µM, 24 h, together with: 5 nM dihydrotestosterone; reference: maximal activity).
With `O=C(Nc1ccc(OC(F)(F)F)cc1)N1CCC(Cc2cccc(Oc3ccc(C(F)(F)F)cn3)c2)CC1` the remaining activity was 22 ± 2% (Faah; mice, liver; intraperitoneal, 10 mg/kg, 4 h, vehicle DMSO; reference: control).

For quick reference, copied from above:
`NC(CNC(CNC(CC(=O)O)C(=O)O)C(=O)O)C(=O)O` (stereo not shown) gave a remaining activity of 53.1 ± 8.4% (angiotensin-converting enzyme, rabbit; 500 µM, 0 min, Zn-depleted buffer).
